Published values of several laboratories.
Every numbered part comes from another study and shows a few of its results, in no order.

Study 1 — technique: Sort-seq; refers to: YFP reporter; medium: E. coli; notes: PhoQ-PhoP variant library; together with: 10 µM Mg2+; reference: high Mg2+ state; reading: higher = stronger signaling
Molecule: PhoQ, residues 284 288 289 292 302 303 SSTLSG
target	fold induction
PhoP, residues 12 14 15 18 19 TQCLL (Escherichia coli, UniProt P23836)	6.83
PhoP, residues 12 14 15 18 19 VHTVL (Escherichia coli, UniProt P23836)	2.44
PhoP, residues 12 14 15 18 19 ICWRQ (Escherichia coli, UniProt P23836)	11.2

Study 2 — technique: universal PBM; form: double-stranded DNA, one strand shown; medium: in vitro; tested at: not given; reading: higher = stronger binding
Target: Sal-like protein 4, full length isoform B (SALL4, Homo sapiens, UniProt Q9UJQ4-2, residues 1-616)
Notes: 8-mer, flanks averaged, mean of replicates
Sequence	E-score
CGCGAGAA	-0.147
TCAGCAGA	-0.0705
CATTGAGG	0.00379
TGGCGCCA	-0.353
TCACCCCA	-0.00966
GGTGCTAC	-0.128
ACCCCGTG	-0.259
CACTCGCA	-0.184
GCCGAACC	-0.191
AGCGAAAC	-0.043
GCACAGGC	-0.146

Study 3 — technique: protein-binding microarray; form: double-stranded DNA, one strand shown; medium: in vitro; tested at: 940 nM top; notes: 60-bp whole probe; together with: salmon DNA 0.4 mg/ml; reference: random background probes; reading: higher = stronger binding; constant ends, left off below: GCCTAGCAC … GTCTTGATTCGCTTGACGCTGCTG
Target: Interferon regulatory factor 5, full length, phosphomimetic (IRF5, Homo sapiens, UniProt Q13568-2, residues 1-514, S451D/S453D/S456D/S462D)
Sequence	fitted relative affinity [z-score]
GACGGTTTGGACTATCGGGACGTGCTA	-0.443
GACAGTATCGGGACTGGGGACGTGCTA	3.55
TTAGGTCTCGGTATCAGTTAGTGCTAG	5.22
TTAGATATAGGGTTTCGATTAGTGCTA	3.69
TTAGGTATCGACACTGGTTTAGTGCTA	4.83
CACATTCTCTGCTTGGGTCTGTGCTAG	0.96
GACGGTATCAACTATCGGGACGTGCTA	1.2
TCATTTATAAATTATCTTACTGTGCTA	0.824
GACGATTTAAGTCTCGAGACGTGCTAG	1.09
GACGATATCGGGACAGGAGACGTGCTA	-0.323

Study 4 — technique: RNA Bind-n-Seq; form: RNA; medium: in vitro; tested at: 365 nM; reference: no-protein control; reading: higher = stronger binding
Target: RNA binding protein fox-1 homolog 2, RRM domain, GST-SBP tag (RBFOX2, Homo sapiens, UniProt O43251-10, residues 100-194)
Notes: natural RNA segment, single round, ends assumed
Constant ends, left off below: GGGAGUUCUACAGUCCGACGAUC … UGGAAUUCUCGGGUGCCAA
Target sequence (chain): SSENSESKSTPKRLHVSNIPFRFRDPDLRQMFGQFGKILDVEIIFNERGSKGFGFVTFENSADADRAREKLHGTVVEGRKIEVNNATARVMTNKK
Sequence	RBNS enrichment (R)
UAUCGUUUUUAAUUUUAAUCAUAGUGCACAUAUUCAAAGAAAGUAUCUUUAAACACAAAAAACCCUGAAAUGUAUAUUUGGAUCGUUUUAAGGCAAUUGAAGACACGCAA	0.605
CAGCCUGGGGGGGUUCUGAGCAGUGCCUCUUGUCUUGGAGACAGACCUGGUGCCUGGCGCUGCCUUCAGCAGGCAGCAGGCAGCCUCCUGCACACUGGCUUUUUUAGUCA	0.927
UCUGCUCUUGACUCUGCCAGCCCUGAUUUUCUGGGCUGGGCUCACUGGCUCUCAAUGCCACCUUCGUUAGGAUUCAUGAAAUGAGUCCCUGUCCUUCCUGGUCAUGCUGG	0.252
AGGGAUCUCUGGUCCCCAGGAGACCUUGGGGGCCAGGCAGGUAAGGAUCAGGGGUGAUAGGGGAGAGCAAUUACUUUGUUCACUGUAUGCACCCGCGGGGGCCUGGGAGU	0.362
ACCACCUGCCACCAAGGUUUCCUCUCUUCCCCCAGGACCUGGGCAGAGCAGGCAUGAGCUGGGCUGUGGUGCAGAGCAAGCAGACCCAGCCACACUGCUCAAAGGUCCCU	0.649
GAAAGGGCAGGCCCAACGGCUGAGAUUGACAUUUCCACUGUUGGUAGAGAGCUGUUAUUUCUAAAGGGGAAACCAGCUUUCUGUUCCAAAUGGAAGUUAGGUGAGGAGUU	0.475
UGACACUGAGCAGGCAGAUUAGCAAUCUCCCAGGUCAUGCAGCAUCUUGAAACAAAGUAAGAAUUCUGAUUCCCAAAAAUAACAAAUUUAAGUGUAUACUUUAGCAGGUG	1.73
CCUGACCCCAGGUGAUCCACCUGCCUCAGCCUUCCAAAGUGCUGGGAUUACAGGCAUGAGCCACCGUGGCCGGCCAAGAUUUUAAGCCUUCUGAGCCUUGAAAUUGAGGA	0.159

A few entries again (study 2):
Sequence	E-score
CGCGAGAA	-0.147
TCAGCAGA	-0.0705
CATTGAGG	0.00379
